Results pooled from the literature.
Each numbered part is a random draw from the data of one study; scales do not carry over between parts. Positions count from the first letter of the parent shown.
Chain of UniProt O15294 (whole entry, looked up): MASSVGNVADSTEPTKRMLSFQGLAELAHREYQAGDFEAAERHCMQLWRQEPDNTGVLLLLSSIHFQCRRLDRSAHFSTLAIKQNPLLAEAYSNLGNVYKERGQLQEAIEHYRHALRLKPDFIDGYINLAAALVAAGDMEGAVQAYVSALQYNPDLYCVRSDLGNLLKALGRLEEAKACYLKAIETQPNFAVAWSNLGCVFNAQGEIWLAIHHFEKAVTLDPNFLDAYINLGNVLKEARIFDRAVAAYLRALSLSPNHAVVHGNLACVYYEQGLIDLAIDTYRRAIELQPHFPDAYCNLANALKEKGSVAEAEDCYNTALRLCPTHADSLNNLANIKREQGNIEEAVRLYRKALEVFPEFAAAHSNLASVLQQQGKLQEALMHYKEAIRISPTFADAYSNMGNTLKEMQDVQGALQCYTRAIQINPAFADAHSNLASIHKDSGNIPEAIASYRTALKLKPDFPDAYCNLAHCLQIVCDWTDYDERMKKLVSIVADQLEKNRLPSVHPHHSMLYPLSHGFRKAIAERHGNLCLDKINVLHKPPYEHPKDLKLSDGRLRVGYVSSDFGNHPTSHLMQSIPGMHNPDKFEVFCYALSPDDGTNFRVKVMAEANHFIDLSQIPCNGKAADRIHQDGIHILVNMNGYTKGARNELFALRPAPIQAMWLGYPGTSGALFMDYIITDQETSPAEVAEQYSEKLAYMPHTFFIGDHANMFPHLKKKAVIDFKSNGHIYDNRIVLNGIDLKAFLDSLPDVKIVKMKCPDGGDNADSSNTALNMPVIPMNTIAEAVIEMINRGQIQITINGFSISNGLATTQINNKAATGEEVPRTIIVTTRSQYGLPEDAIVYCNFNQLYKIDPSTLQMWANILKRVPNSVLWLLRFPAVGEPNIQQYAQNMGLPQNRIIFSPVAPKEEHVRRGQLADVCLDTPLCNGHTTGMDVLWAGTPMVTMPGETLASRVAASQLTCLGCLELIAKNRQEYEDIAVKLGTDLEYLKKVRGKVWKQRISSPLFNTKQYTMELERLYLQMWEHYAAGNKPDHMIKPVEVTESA

Series 1
Target: Protein C-ets-1 (ETS1, Homo sapiens, UniProt P14921, residues 1-441, full length assumed)
Chain of UniProt P14921 (whole entry, looked up): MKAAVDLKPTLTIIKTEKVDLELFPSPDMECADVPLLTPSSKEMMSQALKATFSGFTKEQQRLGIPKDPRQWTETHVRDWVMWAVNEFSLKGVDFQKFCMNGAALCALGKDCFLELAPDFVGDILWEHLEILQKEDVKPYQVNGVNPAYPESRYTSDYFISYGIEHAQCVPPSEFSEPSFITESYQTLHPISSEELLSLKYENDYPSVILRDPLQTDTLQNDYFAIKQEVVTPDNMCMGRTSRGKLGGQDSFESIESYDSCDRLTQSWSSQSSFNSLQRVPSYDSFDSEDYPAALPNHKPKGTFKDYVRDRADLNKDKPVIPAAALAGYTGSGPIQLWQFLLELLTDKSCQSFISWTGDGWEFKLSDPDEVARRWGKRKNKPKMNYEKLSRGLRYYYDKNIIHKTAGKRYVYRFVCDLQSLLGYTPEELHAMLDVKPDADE
Technique: protein-binding microarray
Molecule type: double-stranded DNA, one strand shown
Medium: in vitro
Tested at: not given
Setting: k-mer, scored over probes, only values ≥0.25
Reading: higher = stronger binding
Endpoint: E-score
CGTCCGGC: 0.46
AGGAAGTC: 0.455
ACATTTCC: 0.446
ACGGCGGA: 0.365
GGAAGACC: 0.259
CCAGGAAG: 0.46
TTCCGGAA: 0.492
CCGGACAC: 0.427

Series 2
Target: Sal-like protein 4, full length isoform A (SALL4, Homo sapiens, UniProt Q9UJQ4, residues 1-1053)
Chain of UniProt Q9UJQ4 (whole entry, looked up): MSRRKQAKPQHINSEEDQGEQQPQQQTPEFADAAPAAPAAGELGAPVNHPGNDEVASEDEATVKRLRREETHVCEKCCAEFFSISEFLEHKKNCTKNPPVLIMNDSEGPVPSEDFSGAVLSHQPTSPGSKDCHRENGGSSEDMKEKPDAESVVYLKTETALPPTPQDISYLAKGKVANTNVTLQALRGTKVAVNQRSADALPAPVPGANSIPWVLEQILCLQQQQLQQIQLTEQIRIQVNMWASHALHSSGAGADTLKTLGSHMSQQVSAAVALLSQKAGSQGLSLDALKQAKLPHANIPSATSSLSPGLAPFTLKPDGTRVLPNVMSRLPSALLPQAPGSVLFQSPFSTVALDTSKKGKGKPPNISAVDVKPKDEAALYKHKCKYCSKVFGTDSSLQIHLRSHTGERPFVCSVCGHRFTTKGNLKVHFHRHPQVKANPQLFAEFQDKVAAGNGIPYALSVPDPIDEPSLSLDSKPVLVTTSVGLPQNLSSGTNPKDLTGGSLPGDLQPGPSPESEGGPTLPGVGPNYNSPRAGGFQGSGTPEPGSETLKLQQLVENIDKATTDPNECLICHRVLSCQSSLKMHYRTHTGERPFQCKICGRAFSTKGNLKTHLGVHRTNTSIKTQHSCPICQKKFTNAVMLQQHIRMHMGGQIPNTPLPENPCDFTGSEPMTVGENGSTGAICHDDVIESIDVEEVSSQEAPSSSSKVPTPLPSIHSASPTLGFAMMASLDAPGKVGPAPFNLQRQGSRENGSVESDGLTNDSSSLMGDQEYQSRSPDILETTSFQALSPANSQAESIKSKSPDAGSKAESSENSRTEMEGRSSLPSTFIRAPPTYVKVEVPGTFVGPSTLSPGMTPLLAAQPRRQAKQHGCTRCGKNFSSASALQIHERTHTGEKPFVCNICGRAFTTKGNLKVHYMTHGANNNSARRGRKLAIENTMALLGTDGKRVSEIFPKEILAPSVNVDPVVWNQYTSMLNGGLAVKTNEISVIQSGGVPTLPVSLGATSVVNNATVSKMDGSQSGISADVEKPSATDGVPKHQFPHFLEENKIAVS
Technique: universal PBM
Molecule type: double-stranded DNA, one strand shown
Medium: in vitro
Tested at: 600 nM
Setting: 8-mer, flanks averaged, mean of replicates
Reading: higher = stronger binding
Endpoint: E-score
CGCCGCGC: -0.359
CTGGGTCC: -0.305
CGTTGGCA: -0.0485
CCTCGAAA: 0.0365
ACCAACCA: -0.0467
ATTGGAGA: 0.2
GGTGCTCA: -0.197
ACATTTGA: 0.283

Single results of other studies
P1: viral docking peptide; YKVKRRLVFGADD; partner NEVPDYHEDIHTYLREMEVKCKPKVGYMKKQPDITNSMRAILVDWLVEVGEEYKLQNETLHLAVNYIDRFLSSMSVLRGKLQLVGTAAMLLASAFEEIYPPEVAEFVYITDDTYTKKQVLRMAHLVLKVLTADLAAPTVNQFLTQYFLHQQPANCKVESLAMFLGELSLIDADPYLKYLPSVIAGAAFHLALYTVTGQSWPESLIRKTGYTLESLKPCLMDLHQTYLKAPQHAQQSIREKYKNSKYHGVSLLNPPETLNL
P1 D12E
normalised enrichment score (CCNA2, cyclin fold, Cln2 fusion (human); yeast growth competition, sequencing; yeast; strong parent motif; baseline: not given, higher = stronger binding): 6.22

PhoQ, residues 284 288 289 292 302 303 TTCLQL
fold induction (PhoP, residues 12 14 15 18 19 HHYTI (Escherichia coli, UniProt P23836); Sort-seq, item: YFP reporter; E. coli; PhoQ-PhoP variant library, together with: 10 µM Mg2+; baseline: high Mg2+ state, higher = stronger signaling): 3.16

DSMLFTPLYQITVPH
enrichment fold change (OGT (Homo sapiens, UniProt O15294); binding, phage display NGS; peptide; concentration not given; baseline: input library): 42.5

EVI5 (Homo sapiens, UniProt O60447)
cross-linked residues (Leucine-rich repeat transmembrane protein 3 (Homo sapiens, UniProt Q8NDH2); cross-linking MS; cells; together with: BSPNO): M1 to K110

For quick reference, copied from above (series 1):
CCGGACAC: 0.427
AGGAAGTC: 0.455
CGTCCGGC: 0.46
